Experimental data from different studies.
Lines come from different studies, so protocols differ. ± gives the spread as reported.
KDM5A: KDM5A 287-347 (Homo sapiens, UniProt P29375)
B1: Ric8b 1-483 R75E (Mus musculus, UniProt Q80XE1); chain MDEERALYIVRAGEAGAIERVLRDYSDKHRATFKFESADEDKRKKLCEGIFKVLVKEVPTTCQVSCLEVLRILSEDKKILVPVTTKENMQILLRLAKLHESDDSLEKVSEFPVIVESLKCLCNIVFNSQMAQQLSLELNLAAKLCNLLRKCKDRKFINDIKCFDLRLLFVLSLLHTDIRSQLRYELQGLPLLTQILESAFSIKWTDEYESAIDHNGPPLSPQETDCAIEALKALFNVTVDSWKVHKESDSHQFRVMAAVLRHCLLIVGPTEDKTEELHSNAVNLLSNVPVSCLDVLICPLTHEETAQEAATLDELPSDKTTEKDTALKNSTMVYNGMNMEAIHVLLNFMEKRIDKGSSYREGLTPVLSLLTECSRAHRNIRKFLKDQVLPPLRDVTNRPEVGSTVRNKLVRLMTHVDLGVKQIAAEFLFVLCKERVDSLLKYTGYGNAAGLLAARGLLAGGRGDNWYSEDEDTDTEEYKNAKP
B2: Scn2a 989-1133 (UniProt P04775); CK2-phosphorylated; sequence looked up; chain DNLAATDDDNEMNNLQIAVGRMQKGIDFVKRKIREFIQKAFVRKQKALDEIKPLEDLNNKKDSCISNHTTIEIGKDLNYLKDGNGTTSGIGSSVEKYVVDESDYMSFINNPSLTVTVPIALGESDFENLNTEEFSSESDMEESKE
B3: addA D1172A (Bacillus subtilis, UniProt P23478); sequence looked up; chain MNIPKPADSTWTDDQWNAIVSTGQDILVAAAAGSGKTAVLVERMIRKITAEENPIDVDRLLVVTFTNASAAEMKHRIAEALEKELVQRPGSLHIRRQLSLLNRASISTLHSFCLQVLKKYYYLIDLDPGFRIADQTEGELIGDEVLDELFEDEYAKGEKAFFELVDRYTTDRHDLDLQFLVKQVYEYSRSHPNPEAWLESFVHLYDVSEKSAIEELPFYQYVKEDIAMVLNGAKEKLLRALELTKAPGGPAPRADNFLDDLAQIDELIQHQDDFSELYKRVPAVSFKRAKAVKGDEFDPALLDEATDLRNGAKKLLEKLKTDYFTRSPEQHLKSLAEMKPVIETLVQLVISYGKRFEAAKQEKSIIDFSDLEHYCLAILTAENDKGEREPSEAARFYQEQFHEVLVDEYQDTNLVQESILQLVTSGPEETGNLFMVGDVKQSIYRFRLAEPLLFLSKYKRFTESGEGTGRKIDLNKNFRSRADILDSTNFLFKQLMGGKIGEVDYDEQAELKLGAAYPDNDETETELLLIDNAEDTDASEEAEELETVQFEAKAIAKEIRKLISSPFKVYDGKKKTHRNIQYRDIVILLRSMPWAPQIMEELRAQGIPVYANLTSGYFEAVEVAVALSVLKVIDNPYQDIPLASVLRSPIVGADENELSLIRLENKKAPYYEAMKDYLAAGDRSDELYQKLNTFYGHLQKWRAFSKNHSVSELIWEVYRDTKYMDYVGGMPGGKQRQANLRVLYDRARQYESTAFRGLFRFLRFIERMQERGDDLGTARALSEQEDVVRLMTIHSSKGLEFPVVFVAGLGRNFNMMDLNKSYLLDKELGFGTKYIHPQLRISYPTLPLIAMKKKMRRELLSEELRVLYVALTRAKEKLFLIGSCKDHQKQLAKWQASASQTDWLLPEFDRYQARTYLDFIGPALARHRDLGDLAGVPAHADISGHPARFAVQMIHSYDLLDDDLEERMEEKSERLEAIRRGEPVPGSFAFDEKAREQLSWTYPHQEVTQIRTKQSVSEIKRKREYEDEYSGRAPVKPADGSILYRRPAFMMKKGLTAAEKGTAMHTVMQHIPLSHVPSIEEAEQTVHRLYEKELLTEEQKDAIDIEEIVQFFHTEIGGQLIGAKWKDREIPFSLALPAKEIYPDAHEADEPLLVQGIIDCLYETEDGLYLLAYKSDRIEGKFQHGFEGAAPILKKRYETQIQLYTKAVEQIAKTKVKGCALYFFDGGHILTL
B4: ramucirumab; V domains shown; VH EVQLVQSGGGLVKPGGSLRLSCAASGFTFSSYSMNWVRQAPGKGLEWVSSISSSSSYIYYADSVKGRFTISRDNAKNSLYLQMNSLRAEDTAVYYCARVTDAFDIWGQGTMVTVSS; VL DIQMTQSPSSVSASIGDRVTITCRASQGIDNWLGWYQQKPGKAPKLLIYDASNLDTGVPSRFSGSGSGTYFTLTISSLQAEDFAVYFCQQAKAFPPTFGGGTKVDIK
B5: Spt4/Spt5 complex (Thermococcus kodakarensis); chain 1 MAKERACRHCHYITTEDRCPVCGSRDLSDDWFDLVIVLDVESRIAKKLRESIPEAAKVPGKYAIRVR; chain 2 MAEGKIFTVSVTVGQETTTANLIYSKAKTYNLPLYAILSPSKVKGYIFIEAPNKSAVEEAIRGIRHAKRVLPGEIPFSEIEHFLEEKPAVSGFEPGDIVELIAGPFKGEKAKVVRVDESKDEIVVELVSSVVPIPVTVRGEYVRLISKRQKE
B6: rpoD 530-613 (Escherichia coli, UniProt P00579); sequence looked up; chain LPLDSATTESLRAATHDVLAGLTAREAKVLRMRFGIDMNTDYTLEEVGKQFDVTRERIRQIEAKALRKLRHPSRSEVLRSFLDD
B7: ADRM1 285-407 (Homo sapiens, UniProt Q16186); chain GSWTQVDLASVLTPEIMAPILANADVQERLLPYLPSGESLPQTADEIQNTLTSPQFQQALGMFSAALASGQLGPLMCQFGLPAEAVEAANKGDVEAFAKAMQNNAKPEQKEGDTKDKKDEEEDMSLD
B8: EnvC 278-419 (Escherichia coli, UniProt P37690); chain STESEKSLMSRTGGLGAPRGQAFWPVRGPTLHRYGEQLQGELRWKGMVIGASEGTEVKAIADGRVILADWLQGYGLVVVVEHGKGDMSLYGYNQSALVSVGSQVRAGQPIALVGSSGGQGRPSLYFEIRRQGQAVNPQPWLGR
B9: ADA (Homo sapiens, UniProt P00813); chain MAQTPAFDKPKVELHVHLDGSIKPETILYYGRRRGIALPANTAEGLLNVIGMDKPLTLPDFLAKFDYYMPAIAGCREAIKRIAYEFVEMKAKEGVVYVEVRYSPHLLANSKVEPIPWNQAEGDLTPDEVVALVGQGLQEGERDFGVKARSILCCMRHQPNWSPKVVELCKKYQQQTVVAIDLAGDETIPGSSLLPGHVQAYQEAVKSGIHRTVHAGEVGSAEVVKEAVDILKTERLGHGYHTLEDQALYNRLRQENMHFEICPWSSYLTGAWKPDTEHAVIRLKNDQANYSLNTDDPLIFKSTLDTDYQMTKRDMGFTEEEFKRLNINAAKSSFLPEDEKRELLDLLYKAYGMPPSASAGQNL

For `B1 (Ric8b 1-483 R75E)`, the sensor folding was 2% (GNAL 1-381 (Homo sapiens, UniProt P38405); luminescence; RIC-8B knockout HEK293T; baseline: wild-type Ric-8B, higher = more folding).
The koff of `B2 (Scn2a 989-1133)` is reported as 0.0023 s⁻¹ (ANK2 1-957 (Homo sapiens, UniProt Q01484-2); SPR; pH 7.4, 25 °C, NaCl 150 mM).
Under “molecule per partner”, `THBS1 fragment (Homo sapiens)` is recorded as 1 (pad-2 40-424 R298K/R299K (Caenorhabditis elegans, UniProt Q8WR51); crystal structure).
`PNPLA3 (Homo sapiens, UniProt Q9NST1)` gave a cross-correlation fraction of 0.32 ± 0.04 (ABHD5 (Homo sapiens, UniProt Q8WTS1); FCCS; transfected cells; in cells, together with: oleic acid; higher = more complexes).
`CAND1 (Homo sapiens, UniProt Q86VP6)` has a dissociation half-life of 13 min (CUL2 (Homo sapiens, UniProt Q13617); co-IP; lysate; unneddylated, chase).
Under “molecule per partner”, `B3 (addA D1172A)` is recorded as 1 (addB D961A (Bacillus subtilis, UniProt P23477); AUC; sedimentation equilibrium, no DNA).
`ARTKQTARKS (Histone H3.1 2-11 (Homo sapiens, UniProt P68431); sequence looked up)` has a Ki of 0.82 µM (KDM5A; competition with labeled peptide, fluorescence polarisation; peptide; together with: H3 peptide).
Under “CO2 reduction activity”, `ferredoxin 1 (Magnetococcus marinus)` is recorded as 27.2 min⁻¹ (2-oxoglutarate:ferredoxin oxidoreductase αβ heterodimer (Magnetococcus marinus); 2-oxoglutarate formation; electron donor, together with: ferredoxin).
The kcat/Km of `SERPINF2 mature, citrullinated arginines (Homo sapiens, UniProt P08697)` is reported as 2.5e+07 M⁻¹ s⁻¹ (PLG plasmin (Homo sapiens, UniProt P00747); cleavage of citrullinated antiplasmin).
For `B4 (ramucirumab)`, the neutralisation EC50 was 1.99 µg/mL (KDR (Homo sapiens, UniProt P35968); HUVEC proliferation, neutraliser; antibody, HUVEC; together with: VEGF-A+VEGF-C+VEGF-D).
The reporter activity of `NOTCH2NLB (Homo sapiens, UniProt P0DPK3)` is reported as 22% (NOTCH2 (Homo sapiens, UniProt Q04721); NOTCH2-GAL4 reporter; 24 hours, conditioned medium; baseline: empty-vector medium, higher = more activation).
For `B5 (Spt4/Spt5 complex)`, “full-length transcript production” read 20% (RNA polymerase (Thermococcus kodakarensis); in vitro transcription; 6 µM, 85 °C, protein-free templates; baseline: no factor, higher = more transcript).
The pEC50 of `CCL21 (UniProt O00585)` is reported as 8.5 (ACKR4 (Homo sapiens, UniProt Q9NPB9); β-galactosidase activity, agonist, EFC; CHO-CCX-CKR; together with: wild-type CXCL12 1 µM).
`MQRINKNVVLALLTLTSSAFLLFQLYYYKHYLSARN (FKTN residues 1-36; rhodamine B labelled)`: “molecule per partner” 2 (Fktn residues 1-36, fluorescein label; FRET; peptide, liposomes).
For `GSN (Homo sapiens, UniProt P06396)`, the depolymerization rate was 0.62 h⁻¹ (actin, pyrene label (Oryctolagus cuniculus, UniProt P68135); F-actin severing, fluorimetric pyrene-actin assay; 20 °C, without Ca2+, together with: GSN 0.25 µM).
`cyp102A1 flavin reductase domain (Bacillus megaterium)` — result for “slow phase rate constant”: 0.0032 s⁻¹ (CYP3A4 del3-12 (Homo sapiens, UniProt P08684); BMR-dependent reduction; nanodiscs; together with: ANF).
`C3a (Homo sapiens, UniProt P01024)`: “maximal PWV shift” 270 pm (C3AR1 (Homo sapiens, UniProt Q16581); PWV shift, agonist, label-free photonic crystal biosensor; RBL-2H3, DMEM + 10% FBS; up to 100 nM; higher = larger response).
`Rif1 (Mus musculus, UniProt Q6PR54)` has a co-precipitated Rif1 of > 3 fold (TP53BP1 (Homo sapiens, UniProt Q12888); co-IP; B cells; baseline: unirradiated cells, higher = more Rif1 bound).
`B6 (rpoD 530-613)`: “reporter induction ratio” 14 (soxS F74A/D75A/M78A/D79A/Q85A (Escherichia coli, UniProt P0A9E2); β-galactosidase, two-hybrid; yeast; baseline: non-inducing glucose medium, higher = more interaction).
The phagocytosis of `Itgam/Itgb2 Mac-1 (Mus musculus)` is reported as 4.5 fold (LL-37 (Homo sapiens); phagocytosis of latex beads; mouse peritoneal macrophages; baseline: untreated beads, higher = more phagocytosis).
`CYB5A holo (Homo sapiens, UniProt P00167)`: “catalytic efficiency ratio” 1.3 (CYP3A4 N-terminally truncated K96A (Homo sapiens, UniProt P08684); testosterone 6β-hydroxylation; together with: CPR; baseline: without b5, higher = greater b5 stimulation).
For `B7 (ADRM1 285-407)`, the kcat/Km was 220000 M⁻¹ s⁻¹ (UCHL5 M148A/F149A (Homo sapiens); steady-state kinetics).
Under “molecule per partner”, `EPB41 fragment (Homo sapiens)` is recorded as 1 (SLC9A1 residues 506-575 (Rattus norvegicus); resonant mirror).
`GGWSHY (THBS1 residues 436-441 W441Y (Homo sapiens))` gave an IC50 of > 300 µM (FN1 intact plasma (Homo sapiens); competition with coated peptide, radioligand binding; peptide).
For `B8 (EnvC 278-419)`, the AmiB activation was 100% (AmiB (Escherichia coli); dye release from labelled sacculi, activator; 1 µM; baseline: wild-type, higher = more activation).
For `Prickle2 (Mus musculus, UniProt Q80Y24)`, the E-cadherin coprecipitated was 0.75 a.u. (Vangl2 (Mus musculus, UniProt Q91ZD4); co-IP; HEK293T; 0.2 µg; baseline: control, higher = more E-cadherin).
`SFRNGVGTGMKKTSFQRAKS (Neuropeptide S mature 1-20 (Homo sapiens, UniProt P0C0P6); sequence looked up)` gave an EC50 of 0.583 µM (NPSR1 D105A (Homo sapiens, UniProt Q6W5P4); intracellular Ca2+ mobilisation, agonist, FLIPR; peptide; D105A mutant).
For `YARRRKRRSLAINLTN (TTLL13P D-site peptide (Homo sapiens))`, the IC50 was 1.8 µM (MAPK8, pT183, pY185 (Homo sapiens, UniProt P45983); kinase activity, inhibitor, competitive kinase inhibition assay; peptide; together with: ATP 1 mM).
`ARTKWTARKS (Histone H3.1 2-11 Q5W (Homo sapiens, UniProt P68431); sequence looked up)` has a Ki of 1.05 µM (KDM5A; competition with labeled peptide, fluorescence polarisation; peptide; together with: H3 peptide).
`PICK1 K251E/K252E/K257E/K266E/K268E (Mus musculus)` has a relative co-precipitation of 0.67 fold (Wwc1 (Mus musculus, UniProt Q5SXA9); co-IP; HEK293T; baseline: wild-type PICK1, higher = more binding).
`B9 (ADA)`: “relative enzyme activity” 1.55 fold (bovine serum albumin (Bos taurus, UniProt P02769); adenosine deamination; pH 7.4; baseline: PBS pH 7.4, higher = more activity).

For quick reference, copied from above:
`SFRNGVGTGMKKTSFQRAKS (Neuropeptide S mature 1-20 (Homo sapiens, UniProt P0C0P6); sequence looked up)` gave an EC50 of 0.583 µM (NPSR1 D105A (Homo sapiens, UniProt Q6W5P4); intracellular Ca2+ mobilisation, agonist, FLIPR; peptide; D105A mutant).
For `YARRRKRRSLAINLTN (TTLL13P D-site peptide (Homo sapiens))`, the IC50 was 1.8 µM (MAPK8, pT183, pY185 (Homo sapiens, UniProt P45983); kinase activity, inhibitor, competitive kinase inhibition assay; peptide; together with: ATP 1 mM).
